Measurements collected from several papers.
Lines come from different studies, so protocols differ. Numbers after ± are the reported error.

Compound | test | system | conditions | tissue uptake
Cc1cc(-c2ccc(NC(=O)CC[C@H](NC(=O)CN3CCN(CC(=O)O)CCN(CC(=O)O)CCN(CC(=O)O)CC3)C(=O)NCC(=O)N[C@@H](CC(N)=O)C(=O)N[C@H](C(=O)N[C@H](C(=O)N[C@@H](CCCNC(=N)N)C(=O)N[C@@H](CCC(N)=O)C(=O)O)C(C)C)C(C)C)c(C)c2)ccc1/N=N/c1ccc2c(S(=O)(=O)O)cc(S(=O)(=O)O)c(N)c2c1O [copper-64 labelled] |  | nude mice, muscle | intravenous, 4 h | 2.69 ± 0.44 %ID/g
N#C[C@@H]1CC(F)(F)CN1C(=O)CNC(=O)c1ccnc2ccc(OCCCN3CCN(C(=O)CN4CCN(CC(N)=O)CCN(CC(N)=O)CCN(CC(N)=O)CC4)CC3)cc12 [lead-203 labelled] |  | male NRG mice, HEK293T-hFAP tumour, liver | intravenous, 100 pmol, 1 h, ex vivo, unblocked | 1.02 ± 0.11 %IA/g
C[C@@H](O)[C@@H]1NC(=O)[C@H](CCCCN)NC(=O)[C@@H](Cc2c[nH]c3ccccc23)NC(=O)[C@H](Cc2ccc(O)cc2)NC(=O)[C@@H](NC(=O)[C@@H](Cc2ccccc2)NC(=O)CN2CCN(CC(=O)O)CCN(CC(=O)O)CCN(CC(=O)O)CC2)CSSC[C@@H](C(=O)N[C@H](CO)[C@@H](C)O)NC1=O [gallium-67 labelled] | gamma counting | ICR mice, male, pancreas | iv, 11 kBq/mouse, 3 h | 5.8 ± 0.84 %ID/g
CC(C)C[C@H](NC(=O)[C@@H](CCCCNC(=O)[C@@H](Cc1ccccc1)NC(=O)CCCCCNC(=O)CN1CCN(CC(=O)O)CCN(CC(=O)O)CCN(CC(=O)O)CC1)NC(=O)[C@H](Cc1ccc(O)cc1)NC(=O)[C@H](CO)NC(=O)[C@H](Cc1c[nH]c2ccccc12)NC(=O)[C@H](Cc1c[nH]cn1)NC(=O)[C@@H]1CCC(=O)N1)C(=O)N[C@@H](CCCNC(=N)N)C(=O)N1CCC[C@H]1C(=O)NCC(N)=O [indium-111 labelled] |  | female athymic nude mice, stomach | intravenous, 0.037 MBq, 0.5 h | 4.2 ± 2.68 %ID/g
N#C[C@@H]1CC(F)(F)CN1C(=O)CNC(=O)c1ccnc2ccc(OCCCN3CCN(C(=S)Nc4ccc(C[C@H]5CN(CC(N)=O)CCN(CC(N)=O)CCN(CC(N)=O)CCN5CC(N)=O)cc4)CC3)cc12 [lead-203 labelled] |  | male NRG mice HEK293T-hFAP tumour, bladder | intravenous, 100 pmol, 1 h, unblocked | 8.11 ± 7.22 %ID/g
CCCC[C@@H]1NC(=O)[C@@H](CC(C)C)NC(=O)[C@H](CCCCNC(=O)CN2CCN(CC(=O)O)CCN(CC(=O)O)CC2)NC(=O)[C@@H](CO)NC(=O)[C@H](Cc2c[nH]cn2)NC(=O)[C@@H](Cc2c[nH]c3ccccc23)NC1=O [copper-64 labelled] |  | Balb/c mice, spleen | intravenous, dose not given | 10.3 ± 0.81 %ID/g
CC(C)C[C@@H](NC(=O)[C@@H](CC(C)C)NC(=O)[C@@H](CC(=O)O)NC(=O)[C@@H](CC(C)C)NC(=O)[C@@H](CC(C)C)NC(=O)[C@@H](CC(C)C)NC(=O)[C@H](NC(=O)[C@@H](CC(=O)O)NC(=O)[C@H](NC(=O)[C@H]1CCCN1C(=O)[C@@H](Cc1ccccc1)NC(=O)[C@@H](CC(C)C)NC(=O)[C@@H](CC(C)C)NC(=O)[C@@H](CC(=O)O)NC(=O)[C@@H](CC(C)C)NC(=O)[C@@H](Cc1ccc(O)cc1)NC(=O)[C@@H](C)NC(=O)[C@@H](CCCNC(=N)N)NC(=O)[C@@H](Cc1c[nH]c2ccccc12)NC(=O)[C@H]1CCCN1C(=O)[C@@H](CC(N)=O)NC(=O)[C@@H](CCC(N)=O)NC(=O)[C@@H](CC(=O)O)NC(=O)[C@@H](CC(=O)O)NC(=O)[C@@H](CSC1CC(=O)N(CCNC(=O)CN2CCN(CC(=O)O)CCN(CC(=O)O)CC2)C1=O)NC(=O)[C@@H](C)N)[C@H](C)O)[C@H](C)O)C(=O)N[C@H](Cc1c[nH]c2ccccc12)C(=O)O (stereo partly drawn) [copper-64 labelled] |  | C57BL/6 mice, female, B16-F10 melanoma, blood | intravenous, 12 h | 11.6 %ID/g
CC(C)C[C@@H]1NC(=O)[C@H](CC(=O)O)NC(=O)CNC(=O)[C@H](CCCNC(=N)N)NC(=O)[C@H](Cc2ccc(O)cc2)NC(=O)[C@H](CCCCNC(=O)CCc2cn(CCCNC(=O)CCP(=O)(O)CN3CCN(CP(=O)(O)CCC(=O)NCCCn4cc(CCC(=O)NCCCC[C@H]5C(=O)N[C@@H](Cc6ccc(O)cc6)C(=O)N[C@@H](CCCNC(=N)N)C(=O)NCC(=O)N[C@@H](CC(=O)O)C(=O)N[C@@H](CC(C)C)C(=O)N[C@@H](C)C(=O)N[C@@H](Cc6ccc(O)cc6)C(=O)N6CCC[C@@H]6C(=O)N5C)nn4)CCN(CP(=O)(O)CCC(=O)NCCCn4cc(CCC(=O)NCCCC[C@H]5C(=O)N[C@@H](Cc6ccc(O)cc6)C(=O)N[C@@H](CCCNC(=N)N)C(=O)NCC(=O)N[C@@H](CC(=O)O)C(=O)N[C@@H](CC(C)C)C(=O)N[C@@H](C)C(=O)N[C@@H](Cc6ccc(O)cc6)C(=O)N6CCC[C@@H]6C(=O)N5C)nn4)CC3)nn2)N(C)C(=O)[C@H]2CCCN2C(=O)[C@H](Cc2ccc(O)cc2)NC(=O)[C@H](C)NC1=O [gallium-68 labelled] | PET imaging | SCID mice with H2009 tumour, right kidney | 75 min | 22.2 %ID/g
CCCC[C@@H]1NC(=O)[C@@H](CC(C)C)NC(=O)[C@H](CCCCNC(=O)CN2CCN(CC(=O)O)CCN(CC(=O)O)CC2)NC(=O)NNC(=O)[C@H](Cc2c[nH]cn2)NC(=O)[C@@H](Cc2c[nH]c3ccccc23)NC1=O [copper-64 labelled] |  | Balb/c mice, bone | intravenous, dose not given | 0.12 ± 0.02 %ID/g
